Measurements gathered from unrelated publications.
Parts stem from different laboratories: compare values within a part only. Substitutions count along the parent as printed.
Chain of UniProt Q9SKN5 (whole entry, looked up): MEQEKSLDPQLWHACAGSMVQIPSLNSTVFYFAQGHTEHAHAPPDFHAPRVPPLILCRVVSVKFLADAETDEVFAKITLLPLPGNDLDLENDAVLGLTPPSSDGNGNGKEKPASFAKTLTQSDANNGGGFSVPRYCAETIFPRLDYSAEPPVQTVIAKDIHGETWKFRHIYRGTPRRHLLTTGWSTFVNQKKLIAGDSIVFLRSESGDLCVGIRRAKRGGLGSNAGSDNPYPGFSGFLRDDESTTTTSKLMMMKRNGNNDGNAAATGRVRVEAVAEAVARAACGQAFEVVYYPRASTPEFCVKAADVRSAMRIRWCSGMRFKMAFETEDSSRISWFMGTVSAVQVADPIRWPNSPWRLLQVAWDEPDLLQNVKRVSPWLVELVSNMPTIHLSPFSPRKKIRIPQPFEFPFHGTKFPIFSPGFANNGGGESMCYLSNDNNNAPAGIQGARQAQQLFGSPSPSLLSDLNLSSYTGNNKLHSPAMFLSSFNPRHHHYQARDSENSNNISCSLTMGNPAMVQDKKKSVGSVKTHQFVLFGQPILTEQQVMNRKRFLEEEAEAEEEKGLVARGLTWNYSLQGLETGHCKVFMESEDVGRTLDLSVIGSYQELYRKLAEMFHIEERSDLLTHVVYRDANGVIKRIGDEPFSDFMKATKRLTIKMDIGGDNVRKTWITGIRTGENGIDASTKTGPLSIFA
Chain of UniProt Q9ZPY6 (whole entry, looked up): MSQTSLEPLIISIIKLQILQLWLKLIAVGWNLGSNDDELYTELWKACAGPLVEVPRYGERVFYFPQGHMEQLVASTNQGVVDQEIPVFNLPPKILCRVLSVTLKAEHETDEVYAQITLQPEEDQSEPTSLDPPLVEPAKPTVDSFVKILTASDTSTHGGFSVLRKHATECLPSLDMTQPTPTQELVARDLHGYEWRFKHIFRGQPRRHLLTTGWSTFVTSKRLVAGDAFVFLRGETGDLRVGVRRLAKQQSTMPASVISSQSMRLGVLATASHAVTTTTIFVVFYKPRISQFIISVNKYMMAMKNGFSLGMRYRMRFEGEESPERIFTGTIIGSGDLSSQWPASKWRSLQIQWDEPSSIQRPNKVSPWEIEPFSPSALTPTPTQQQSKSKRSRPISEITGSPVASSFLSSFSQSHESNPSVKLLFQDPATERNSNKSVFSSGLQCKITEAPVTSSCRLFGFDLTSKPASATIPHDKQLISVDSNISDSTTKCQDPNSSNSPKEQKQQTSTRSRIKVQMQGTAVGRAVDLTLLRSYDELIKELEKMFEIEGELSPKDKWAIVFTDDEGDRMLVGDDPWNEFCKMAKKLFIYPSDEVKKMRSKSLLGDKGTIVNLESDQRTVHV
Chain of UniProt O23661 (whole entry, looked up): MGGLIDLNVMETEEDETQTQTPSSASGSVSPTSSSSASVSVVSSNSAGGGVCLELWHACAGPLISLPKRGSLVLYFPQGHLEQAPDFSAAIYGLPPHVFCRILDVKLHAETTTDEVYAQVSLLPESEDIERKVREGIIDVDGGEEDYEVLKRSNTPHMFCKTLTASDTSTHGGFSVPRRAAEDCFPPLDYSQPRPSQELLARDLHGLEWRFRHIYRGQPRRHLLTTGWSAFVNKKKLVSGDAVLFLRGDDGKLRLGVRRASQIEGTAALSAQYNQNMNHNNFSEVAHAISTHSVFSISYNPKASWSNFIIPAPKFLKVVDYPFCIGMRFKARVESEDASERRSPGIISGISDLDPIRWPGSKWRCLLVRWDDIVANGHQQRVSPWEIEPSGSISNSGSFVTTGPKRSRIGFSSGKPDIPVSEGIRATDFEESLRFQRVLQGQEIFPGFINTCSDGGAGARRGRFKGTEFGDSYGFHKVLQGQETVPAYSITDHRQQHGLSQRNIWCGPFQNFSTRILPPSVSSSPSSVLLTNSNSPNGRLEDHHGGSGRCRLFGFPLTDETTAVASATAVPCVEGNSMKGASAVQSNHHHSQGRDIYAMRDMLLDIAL

Sample 1
Target: Fragile X messenger ribonucleoprotein 1, C-terminal low-complexity region (Fmr1, Mus musculus, UniProt P35922)
Technique: RNA Bind-n-Seq
Molecule type: RNA
Sample: in vitro
Tested at: 200 nM
Notes: whole 134-nt RNA, ends assumed
Together with: 150 mM LiCl
Reference: input library
Reading: higher = stronger binding
Quantity: log2 enrichment
Library: 7-deaza-guanosine replaces G
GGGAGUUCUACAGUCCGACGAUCUUUCUCCAUUGCAGGAAGUUGGCAGUAUCAUCGGAAAGGUAAGACAAUUUCACUUCAACUUCAAUUACCAUUUAGUAAUUCUGGAUUGAAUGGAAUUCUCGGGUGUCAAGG: -1.64
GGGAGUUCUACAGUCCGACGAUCGCAGGAAGUAAAAACAAAUGGAAAUGCUUCGGAUAGUGGCGGGGGUGGGGGUUGCUAAGGAAAGGGUGGGAUGGGAGUGGGUAAAGAGUUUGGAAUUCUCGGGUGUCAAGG: 1.42
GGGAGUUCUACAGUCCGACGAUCUGGACUUGCGGGUUCCCAUCUGGGACCAGGACAUACAGUUUCUCCCAGGAUCACAGAAGCUUGUCACCUGCACAGGGUACCACCAGGUAAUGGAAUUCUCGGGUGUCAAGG: -0.43
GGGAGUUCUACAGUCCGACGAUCCUCAAGUCCUGUGCUACACAUCGUAUGUACCGAAUCGGGCGGGCGGGGCGGGGAAAGUAUUAUGUUACGCCGUUCGGAUCUGCACUUCCAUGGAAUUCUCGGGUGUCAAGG: 0.318
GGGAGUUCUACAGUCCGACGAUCUCCUGUGCUACACAUCGUAUGUACCGAAUCGGGAAAAAAGGGGAAAAAAGGGAAAAAAGGAAAGUAUUAUGUUACGCCGUUCGGAUCUGCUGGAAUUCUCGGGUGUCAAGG: -0.354
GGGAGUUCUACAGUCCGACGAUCCCUGUGCUACACAUCGUAUGUACCGAAUCGGCCCCCCCGGGCCCCCCCGGCCCCCCCGGGGAAAGUAUUAUGUUACGCCGUUCGGAUCUGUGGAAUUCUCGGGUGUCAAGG: 0.0943
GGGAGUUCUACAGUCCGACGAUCAAGUCCUGUGCUACACAUCGUAUGUACCGAAUCGGGGAAAGGGGAAAGGGGUGGGGAAAGUAUUAUGUUACGCCGUUCGGAUCUGCACUUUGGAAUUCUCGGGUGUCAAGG: 0.00754
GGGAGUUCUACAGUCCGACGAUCCUCAAGUCCUGUGCUACACAUCGUAUGUACCGAAUCGGUUUUUGGAAAGGUGGAAAGUAUUAUGUUACGCCGUUCGGAUCUGCACUUCCAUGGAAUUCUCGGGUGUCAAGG: -0.404
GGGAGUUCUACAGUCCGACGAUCCACAGACAACACGCACCCACACAGACUCAGAGGGAAGGGGUUGGGAUGGGGACAGGGUGCACAGCAGGGCGGGGUAGGACCCCAGCCCCUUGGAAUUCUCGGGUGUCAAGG: 0.419
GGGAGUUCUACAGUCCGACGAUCUCUAUUCAUAAGAACCCCAACACAUCGGAGCCCCAACACCUGUUGGUGAUGAAGGGCGCCCCAGAAAGGAUCCUAGACCGUUGCAGCUCUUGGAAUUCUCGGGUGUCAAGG: 2.06
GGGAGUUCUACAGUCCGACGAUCACUUUGUCAGAUAUUGCUAGGGACCAGUGAGAUAGAUAAUCCAAAAAUAAUAAUUUGACUUUGGUUGAGUAUGUCAUUACCACAGUGUUAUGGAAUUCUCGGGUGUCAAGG: -2.2

Sample 2
Target: ABI1, truncated, D143A, DHFR fusion (Arabidopsis thaliana)
Technique: DHFR PCA, deep sequencing
Sample: yeast
Notes: methotrexate growth selection, single substitutions
Together with: (+)-ABA 0.39 µM
Reference: wild-type fitted maximum
Reading: higher = stronger binding
Quantity: relative binding score
Parent: PYL1, truncated, DHFR fusion (Arabidopsis thaliana); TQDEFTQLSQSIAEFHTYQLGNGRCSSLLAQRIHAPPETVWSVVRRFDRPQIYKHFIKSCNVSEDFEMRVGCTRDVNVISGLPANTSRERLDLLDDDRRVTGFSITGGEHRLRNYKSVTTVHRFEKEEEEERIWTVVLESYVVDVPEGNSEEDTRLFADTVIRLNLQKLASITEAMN
K116F: -7.28%
N77E: 72.5%
S117W: -11.3%
L28C: 17.2%
E174Q: 16.1%
N177D: 15.6%
R24M: 30.8%
R32Y: 29.8%
R74P: -8.19%
P36C: 13.2%
S42E: 48.4%
R98A: 8.95%
L112P: 8.03%
V121W: -3.65%
M68D: -0.469%
N114P: -17.3%

Sample 3
Molecule: B1 (IAA10)
Technique: two-hybrid
Reading: higher = firmer interaction
Quantity: positive tests
B1: IAA10 (Arabidopsis thaliana, UniProt Q38828); chain MNGLQEVCSSSGSVMIGLPAEEDENAAHSSEDSSCPDESVSETELDLALGLSIGRRKVRSSLSSSSSSLTRESGTKRSADSSPAAASNATRQVAVGWPPLRTYRINSLVNQAKSLATEGGLSSGIQKETTKSVVVAAKNDDACFIKSSRTSMLVKVTMDGVIIGRKVDLNALDSYAALEKTLDLMFFQIPSPVTRSNTQGYKTIKETCTSKLLDGSSEYIITYQDKDGDWMLVGDVPWQMFLGSVTRLRIMKTSIGAGVGK
ETT (Arabidopsis thaliana, UniProt O23661); reference: out of 2 tests: 0
ARF11 500-622 (Arabidopsis thaliana, UniProt Q9ZPY6); reference: out of 2 tests: 0
ARF10 575-693 (Arabidopsis thaliana, UniProt Q9SKN5); reference: out of 4 tests: 1

Sample 4
Target: Prothrombin, mature alpha-thrombin (F2, Homo sapiens, UniProt P00734)
Technique: aptamer microarray, sandwich
Molecule type: DNA with 2'F-ANA
Sample: in vitro
Tested at: 200 nM
Notes: whole 15-mer aptamer, many near background
Together with: Cy3 exosite-II aptamer, 400 nM
Reading: higher = stronger binding
Quantity: mean fluorescence intensity
Oligonucleotide: GGTTGGTGTGGTTGG
2'F-ANA at 1 3 6 7 13: 212 a.u.
2'F-ANA at 1 3 4 5 6 8 9 10 11 12 14 15: 53.1 a.u.
2'F-ANA at 1 3 6: 307 a.u.
2'F-ANA at 2 3 4 9 11 13 15: 433 a.u.
2'F-ANA at 3 5 6 10 13 14: 46.4 a.u.
2'F-ANA at 5 6 12 15: 144 a.u.
2'F-ANA at 1 2 3 6 7 9 10 12: 92.2 a.u.
2'F-ANA at 1 2 5 6 7 10 15: 48.7 a.u.
2'F-ANA at 2 3 6 7 8 11 12 13 14 15: 381 a.u.
2'F-ANA at 1 2 4 5 7 9 11 12 13 14 15: 49.7 a.u.
2'F-ANA at 5 6 8 9 10 11 12 13 14: 50.5 a.u.
2'F-ANA at 4 9 10 13 14: 64.5 a.u.
2'F-ANA at 3 6 8 9 10 13: 413 a.u.
2'F-ANA at 2 6 10 11 13 14: 80.6 a.u.
2'F-ANA at 2 5 6 8 9 10 13 14 15: 48.5 a.u.
2'F-ANA at 1 3 4 5 6 9 12 15: 110 a.u.
2'F-ANA at 6 7 10 12 13 14: 109 a.u.
2'F-ANA at 1 3 4 5 6 8 9 12 15: 115 a.u.
2'F-ANA at 1 2 4 5 8 9 11 13 14 15: 48.9 a.u.
2'F-ANA at 1 2 4 5 6 7 10 11 13: 48.7 a.u.
2'F-ANA at 2 3 4 8 9 12 14 15: 311 a.u.

Sample 5
Target: Interferon regulatory factor 7, full length, phosphomimetic (IRF7, Homo sapiens, UniProt Q92985, residues 1-503, S471D/S472D/S475D/S476D/S477D/S483D/S484D/S487D)
Technique: protein-binding microarray
Molecule type: double-stranded DNA, one strand shown
Sample: in vitro
Tested at: 2200 nM top
Notes: 60-bp whole probe
Together with: salmon DNA 0.4 mg/ml
Reference: random background probes
Reading: higher = stronger binding
Quantity: fitted relative affinity
Constant ends, left off below: GCCTAGCAC … GTCTTGATTCGCTTGACGCTGCTG
Construct (chain): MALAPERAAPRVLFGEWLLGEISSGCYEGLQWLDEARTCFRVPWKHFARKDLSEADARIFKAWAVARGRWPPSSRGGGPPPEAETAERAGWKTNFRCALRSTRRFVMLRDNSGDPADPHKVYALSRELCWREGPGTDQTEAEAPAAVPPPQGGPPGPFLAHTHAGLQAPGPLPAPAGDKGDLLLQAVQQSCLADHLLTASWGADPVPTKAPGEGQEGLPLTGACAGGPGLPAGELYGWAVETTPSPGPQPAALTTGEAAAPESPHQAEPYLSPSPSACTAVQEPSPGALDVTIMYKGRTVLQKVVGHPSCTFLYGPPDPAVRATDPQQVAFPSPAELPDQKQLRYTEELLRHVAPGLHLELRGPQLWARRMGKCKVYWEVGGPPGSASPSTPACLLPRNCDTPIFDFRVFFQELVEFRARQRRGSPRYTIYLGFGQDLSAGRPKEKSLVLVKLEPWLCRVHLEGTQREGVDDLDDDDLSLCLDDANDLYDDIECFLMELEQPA
TTAGGTTTCCTTATCCTATAGTGCTAG: 2.27 z-score
TTAGGTATCATTATCCTTTAGTGCTAG: 0.59 z-score
TTAGAACTGAGTGTCGATTAGTGCTAG: -0.477 z-score
GACGATTTCGGACTGGGGACGTGCTAG: 1.55 z-score
TACGGACTGCTACTGCTGACGTGCTAG: -0.115 z-score
GAAGGTTTCCTTTCCCTGACGTGCTAG: 3.7 z-score
TTTAGGTCCCTTTTCATGCTGTGCTAG: 1.96 z-score
TTCGGTTTCCTTTCCCTTTAGTGCTAG: 7.58 z-score
TTAGGACTGGGTATCGGTGAGTGCTAG: -0.762 z-score
GCCGATATCAGTCTCGAGACGTGCTAG: 0.628 z-score
TTAGAACTGGGGACTGGATGAGTGCTA: -0.454 z-score
TCAACTTTCTTTAACATACTGTGCTAG: 1.01 z-score
ATATATATTCATATATATATGTGCTAG: 0.799 z-score
TCAATGTTACATTTATAACTGTGCTAG: 0.473 z-score
GACGGTTTCCTTATCCTGCCGTGCTAG: 3.03 z-score
TTCTCCATGGGTATGGCCTAGTGCTAG: 0.185 z-score
GACGATTTCAGTTTCGAAACGTGCTAG: 5.66 z-score
TTAGGTTTCTACTATCGGTTAGTGCTA: 1.59 z-score

Repeated from above (sample 3):
ARF11 500-622 (Arabidopsis thaliana, UniProt Q9ZPY6); reference: out of 2 tests: 0
ETT (Arabidopsis thaliana, UniProt O23661); reference: out of 2 tests: 0
ARF10 575-693 (Arabidopsis thaliana, UniProt Q9SKN5); reference: out of 4 tests: 1
